Literature values as cited in several papers.
Lines come from different studies, so protocols differ.

Compound	cell line	assay	conditions	IC50
O=C(/C=C/c1ccc(O)c(O)c1)NCCc1ccc(O)c(O)c1	RAW264.7	cytotoxicity	24 h	> 100 µM
CC(C)C[C@@H](NC(=O)[C@H](C)NC(=O)CNC(=O)[C@@H](NC=O)C(C)C)C(=O)N[C@@H](C)C(=O)N[C@@H](C(=O)N[C@H](C(=O)N[C@@H](C(=O)N[C@@H](Cc1c[nH]c2ccccc12)C(=O)N[C@H](CC(C)C)C(=O)N[C@@H](Cc1c[nH]c2ccccc12)C(=O)N[C@H](CC(C)C)C(=O)N[C@@H](Cc1c[nH]c2ccccc12)C(=O)N[C@H](CC(C)C)C(=O)N[C@@H](Cc1c[nH]c2ccccc12)C(=O)NCCO)C(C)C)C(C)C)C(C)C	P388	cytotoxicity	–	0.0058 µM
CCC1=C(O)c2c(oc(-c3ccc4cc(OC)ccc4c3)cc2=O)C(CC)(CC)C1=O	KB-VIN (P-gp-overexpressing MDR)	cell growth, SRB	–	9.57 µM
COc1cc(O)c(-c2ccc(OC)c3c(O)cc(C)c(-c4cc(-c5c(O)cc(OC)c6c5C[C@H](C)N(C)[C@@H]6C)c5cc(C)cc(OC)c5c4O)c23)c2c1[C@@H](C)N(C)[C@H](C)C2	rat L6 myoblasts	cytotoxicity	–	1.37 µM
CC1=C(Cn2c3cccc(=O)c-3nc3ccccc32)CCC(C)(C)C1	L1210 mouse leukaemia	cytotoxicity	–	0.1 µg/mL
O=C1/C(=C/c2ccc(B(O)O)cc2)CC/C1=C\c1ccc(B(O)O)cc1	HER2-expressing breast cancer cells	cytotoxicity	–	> 200 µM
FC(F)(F)c1ccc2nc3c4cccnc4c4ncccc4c3nc2c1.[Cl-].[Cl-].[Ru+2].c1ccncc1.c1ccncc1.c1ccncc1.c1ccncc1	L-O2	cytotoxicity	dark	> 200 µM
COc1cc(/C=C/C(=O)NCCc2ccc(O)c(O)c2)ccc1O	RAW264.7	cytotoxicity	24 h	> 100 µM
CCCC[C@H](C)/C=C(C)/C=C/C(=O)O	T47D	cytotoxicity	–	1 µM
O=C(CCc1ccc(O)c(O)c1)NCCc1ccc(O)cc1	RAW264.7	cytotoxicity	24 h	> 100 µM
CCC1=C(O)c2c(oc(-c3cc4ccccc4s3)cc2=O)C(CC)(CC)C1=O	KB-VIN (P-gp-overexpressing MDR)	cell growth, SRB	–	9.9 µM
COc1cc(/C=C/C(=O)NCCc2ccccc2)ccc1O	RAW264.7	cytotoxicity	24 h	> 100 µM
CC1=C(Cn2c3ccc(Br)c(=O)c-3nc3ccccc32)CCC(C)(C)C1	HCT-116	cytotoxicity	–	0.049 µM

Some of these lines once more:
Compound	cell line	assay	conditions	IC50
FC(F)(F)c1ccc2nc3c4cccnc4c4ncccc4c3nc2c1.[Cl-].[Cl-].[Ru+2].c1ccncc1.c1ccncc1.c1ccncc1.c1ccncc1	L-O2	cytotoxicity	dark	> 200 µM
